Experimental data pooled from the literature.
A part holds a random share of what one study measured.

Study 1
Target: Histone acetyltransferase KAT6A, both winged helices, GST fusion (KAT6A, Homo sapiens, UniProt Q92794, residues 1-181)
Technique: protein binding microarray
Molecule type: double-stranded DNA, one strand shown
Matrix: in vitro
Tested at: not given
Setting: 8-mer, flanks averaged, mean of 2 arrays, mostly near background
Baseline: not given
Reading: higher = stronger binding
Residues (chain): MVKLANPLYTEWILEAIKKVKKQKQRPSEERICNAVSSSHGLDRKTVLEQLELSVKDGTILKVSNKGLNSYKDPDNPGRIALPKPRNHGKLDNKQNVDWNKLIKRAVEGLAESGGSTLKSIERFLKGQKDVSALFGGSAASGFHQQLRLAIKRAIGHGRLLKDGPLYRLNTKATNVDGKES
`GAAATATA` gave an E-score of -0.0602.
`CGCCTGCC` gave an E-score of 0.145.
`CTCCGAAG` gave an E-score of -0.0149.
With `CATGGCGG` the E-score was 0.194.
For `AGTCATCA`, the E-score was -0.123.
`ACCTCTCC` gave an E-score of 0.0491.
For `AGTGGCAG`, the E-score was -0.135.
`GAGCAAAC` has an E-score of -0.179.
With `ATTGAAGA` the E-score was -0.178.
`GCCGCACC` gave an E-score of 0.195.
For `ATCCTAGG`, the E-score was -0.201.
With `GACCTATA` the E-score was 0.0574.
`ACCCCCTC` gave an E-score of -0.139.
`CGTAAACC` gave an E-score of 0.172.
With `CCTCAGCC` the E-score was -0.269.
`CAAAATTC` gave an E-score of -0.00834.
`CAACTCCG` has an E-score of 0.0647.

Study 2
Target: Ras GTPase-activating protein-binding protein 1, full length (G3BP1, Homo sapiens, UniProt Q13283)
UniProt Q13283, sequence (whole entry, looked up): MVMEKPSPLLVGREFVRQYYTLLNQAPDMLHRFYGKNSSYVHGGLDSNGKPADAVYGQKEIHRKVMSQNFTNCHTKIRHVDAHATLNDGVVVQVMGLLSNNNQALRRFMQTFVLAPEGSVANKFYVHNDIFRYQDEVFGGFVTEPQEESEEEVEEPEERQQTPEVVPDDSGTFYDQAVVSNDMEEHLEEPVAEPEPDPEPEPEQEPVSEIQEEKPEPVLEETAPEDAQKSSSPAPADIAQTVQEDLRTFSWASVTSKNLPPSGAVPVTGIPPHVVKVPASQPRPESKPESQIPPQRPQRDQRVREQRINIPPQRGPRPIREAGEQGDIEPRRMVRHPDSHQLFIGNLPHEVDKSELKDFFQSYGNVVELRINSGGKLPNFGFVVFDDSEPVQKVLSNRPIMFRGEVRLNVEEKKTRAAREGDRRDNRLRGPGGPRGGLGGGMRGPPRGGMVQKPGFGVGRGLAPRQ
Technique: RNA Bind-n-Seq
Molecule type: RNA
Matrix: in vitro
Tested at: 200 nM
Setting: whole 134-nt RNA, ends assumed
With: 150 mM LiCl
Baseline: input library
Reading: higher = stronger binding
Each molecule: 7-deaza-guanosine replaces G
Shared flanks, not repeated: GGGAGUUCUACAGUCCGACGAUC … UGGAAUUCUCGGGUGUCAAGG
The log2 enrichment of `CUCAAGUCCUGUGCUACACAUCGUAUGUACCGAAUCGGGGUUGGUUGGUUGGGAAAGUAUUAUGUUACGCCGUUCGGAUCUGCACUUCCA` is reported as -0.0468.
For `AAGUCCUGUGCUACACAUCGUAUGUACCGAAUCGGCCCCCGGCCCCCGGCCCCCGGAAAGUAUUAUGUUACGCCGUUCGGAUCUGCACUU`, the log2 enrichment was 0.0715.
`GAGGGAGUUUGCAGAUACCUCAGGAUUCGUGACAAUGCCUUUAAAGAUCCAGGAGAGAUGUUCAGCUACUAGGAACUGCUAGCAAGUAUA` has a log2 enrichment of -0.774.
`AGUCCUGUGCUACACAUCGUAUGUACCGAAUCGGGUUUUUUUGGGAGGGUUUUUGGGAAAGUAUUAUGUUACGCCGUUCGGAUCUGCACU` has a log2 enrichment of -0.585.
With `UCCUGUGCUACACAUCGUAUGUACCGAAUCGGGGAAAAAAAGGGGUGGGGAAAAAGGGGAAAGUAUUAUGUUACGCCGUUCGGAUCUGCA` the log2 enrichment was -1.6.
For `UGGCCCUGGUGGCAUGCGGGGAGGAAGAGGUGGCCUCAUGGAUCGUGGUGGUCCCGGUGGAAUGUUCAGAGGUGGCCGUGGUGGGGACAG`, the log2 enrichment was -0.0673.
With `UAACUUUAGAGGAGGAUCUGGUGGAUAUGGCAGUGGACGUGGAUUUGGGGAUGGCUAUAAUGGGUAUGGAGGAGGACCUGGAGGUGGCAA` the log2 enrichment was 0.00648.
`UGGCCCUGGUGGCAUGCGGGGAGGAAGAGGUGGCCUCAUGGAUCGUGGUGUUCCCGGUGGAAUGUUCAGAGGUGGCCGUGGUGGAGACAG` gave a log2 enrichment of 0.364.
For `AGUCCUGUGCUACACAUCGUAUGUACCGAAUCAAACCCCCAAACCCCCAAAUUUAAAAAAGUAUUAUGUUACGCCGUUCGGAUCUGCACU`, the log2 enrichment was 0.882.
For `ACCAUGCAGUUGGGCAUCUUUGGGAAGUGGGGCAAGGGGGGGAUAGGGAGGGGGGUAACACUUUGGGAACAGGUGGUCCCAGGUCGUUUC`, the log2 enrichment was 0.285.
The log2 enrichment of `CCUCAAGUCCUGUGCUACACAUCGUAUGUACCGAAUCGGGCGGGCGGCGGGGAAAGUAUUAUGUUACGCCGUUCGGAUCUGCACUUCCAG` is reported as 0.636.

Study 3
Target: Interferon regulatory factor 7, full length, phosphomimetic (IRF7, Homo sapiens, UniProt Q92985, residues 1-503, S101K/S471D/S472D/S475D/S476D/S477D/S483D/S484D/S487D)
UniProt Q92985, sequence (whole entry, unmodified, looked up): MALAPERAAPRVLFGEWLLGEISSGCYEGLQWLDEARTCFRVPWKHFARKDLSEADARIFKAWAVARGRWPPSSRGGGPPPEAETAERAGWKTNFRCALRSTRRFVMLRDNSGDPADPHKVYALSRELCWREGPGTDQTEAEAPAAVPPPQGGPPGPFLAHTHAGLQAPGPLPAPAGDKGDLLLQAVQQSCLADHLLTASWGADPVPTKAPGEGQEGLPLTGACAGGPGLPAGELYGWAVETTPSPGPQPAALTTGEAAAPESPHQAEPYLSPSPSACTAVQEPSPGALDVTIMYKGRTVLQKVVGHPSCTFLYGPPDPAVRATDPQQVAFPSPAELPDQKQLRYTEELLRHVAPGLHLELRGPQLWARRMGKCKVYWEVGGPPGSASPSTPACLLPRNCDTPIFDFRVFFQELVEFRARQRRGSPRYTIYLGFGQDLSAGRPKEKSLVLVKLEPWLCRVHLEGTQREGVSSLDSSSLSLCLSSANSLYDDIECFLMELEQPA
Technique: protein-binding microarray
Molecule type: double-stranded DNA, one strand shown
Matrix: in vitro
Tested at: 250 nM
Setting: 60-bp whole probe
With: salmon DNA 0.4 mg/ml
Baseline: random background probes
Reading: higher = stronger binding
Shared flanks, not repeated: GCCTAGCAC … GTCTTGATTCGCTTGACGCTGCTG
`GACGAATTGGGGACTGGAGACGTGCTA` gave a log fluorescence of -0.52 z-score.
With `GACGGTTTTGGTATCGGGACGTGCTAG` the log fluorescence was 1.73 z-score.
`GACGGACTACTTCTCCTGACGTGCTAG` has a log fluorescence of -0.282 z-score.
The log fluorescence of `GACGGTTTCGTTCTCCTGACGTGCTAG` is reported as 11 z-score.
`TCATTGATGGCTCTCTGACTGTGCTAG` has a log fluorescence of -0.149 z-score.
`TTAGATCTCAGATTGGATTAGTGCTAG` gave a log fluorescence of -0.008 z-score.
`GACGGTATCGGGTTTCGGGATGTGCTA` gave a log fluorescence of 4.23 z-score.
For `TTTTTTTTCCTAATTGAACCGTGCTAG`, the log fluorescence was 1.57 z-score.
For `GACGGTTTCGCTTTCGGGACGTGCTAG`, the log fluorescence was 12.9 z-score.
With `TCATTTCTCAACCTCCAACTGTGCTAG` the log fluorescence was 1.84 z-score.
`AGAGATTTCAGGAATTGAAAAGTGCTA` gave a log fluorescence of -0.269 z-score.
`GACGATCTCAGTATGGAGACGTGCTAG` has a log fluorescence of -0.34 z-score.
`GACGAACTGTGTTTCGAGACGTGCTAG` has a log fluorescence of 0.649 z-score.
The log fluorescence of `TTAGGACTGGACTTTCGGATAGTGCTA` is reported as -0.224 z-score.
`TCATTTAGTAGTTTCTAACTGTGCTAG` has a log fluorescence of 2.05 z-score.
`AATTAATAACTCGTAGGATCGTGCTAG` has a log fluorescence of -0.0805 z-score.
With `TCATCATTCCTGATCTCACTGTGCTAG` the log fluorescence was 0.689 z-score.
`TCAGTTTTCTCATTCGTACTGTGCTAG` has a log fluorescence of 1.74 z-score.
For `CTTTTATTTTTTTTATTTATGTGCTAG`, the log fluorescence was 3.07 z-score.
The log fluorescence of `TCAAAACTCGTATGTGACACTGTGCTA` is reported as 0.00777 z-score.

Study 4
Target: RING finger protein unkempt homolog, zinc fingers 1-6, GST-SBP tag (UNK, Homo sapiens, UniProt Q9C0B0, residues 30-357)
Technique: RNA Bind-n-Seq
Molecule type: RNA
Matrix: in vitro
Tested at: not given
Setting: RNA with constant flanks, human and mouse sites, ends assumed
Baseline: input RNA pool
Reading: higher = stronger binding
Shared flanks, not repeated: GGGAGUUCUACAGUCCGACGAUC … CAACAGAGGAUUGAGCAUCA
Residues (chain): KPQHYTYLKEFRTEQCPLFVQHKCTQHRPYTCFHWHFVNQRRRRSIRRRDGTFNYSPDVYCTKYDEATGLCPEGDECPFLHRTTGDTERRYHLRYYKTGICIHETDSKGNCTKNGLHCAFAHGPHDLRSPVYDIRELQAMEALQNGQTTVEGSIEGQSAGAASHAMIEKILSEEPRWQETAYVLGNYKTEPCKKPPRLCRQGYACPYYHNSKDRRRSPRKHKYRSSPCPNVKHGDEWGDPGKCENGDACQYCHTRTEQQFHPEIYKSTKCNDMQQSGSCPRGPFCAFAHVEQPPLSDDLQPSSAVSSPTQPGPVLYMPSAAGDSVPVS
`UGAGCCUAGUUUCUCUGCUUGAAAGAGCCACAAUUGAUUGAAAGCCUGUUGUAACCUAACCUGACUCCCGGAAGUGACAAAGGAACAAGUGAGCAGUAGGUUGUUCCGCUUACUAGGACU` has a bound/input enrichment of 0.245 ratio.
`AAAGAGAUGAUUAAGAAGGCAAAAAAACUGAUUGAGACCACAGCCAACAUGAACUCCAGUUAUGUUAAAUUUUUAAAGCAGGCAACAGAUAAUUCAGAAAUCAGUUCUGCUACAAAAUUA` has a bound/input enrichment of 0.356 ratio.
With `CCCUUCUGCCGAAUCUGCCACGAGGGAGCAAAUGGGGAGAACUUGCUGUCCCCAUGUGGCUGCACGGGCACACUGGGAGCUGUGCACAAGAGCUGCCUGGAGAAAUGGCUGUCUUCCUCC` the bound/input enrichment was 0.0601 ratio.
The bound/input enrichment of `GGAAAUAUUCUGUUGACAUCGCUGGAAGUUCACAAUGAAAUGAAUGAGGUCUCAGGCGGCAUUGGCGAUACCAGGAAUUCAGCAAUAUCCUUUGACAACUCAGGAAUCCAGUACAGGAAA` is reported as 0.148 ratio.
`AGCAGUCAUCUUAUCAAUCUUCUGAACCCUAAAGGAAAGCCAGCAAACCAGCUGCUUGCUCUCAGGACUUUUUGCAAUUGUUUUGUUGGCCAGGCAGGACAAAAACUCAUGAUGUCCCAG` gave a bound/input enrichment of 0.13 ratio.
The bound/input enrichment of `CAAGGAGCCAGUGCUGGUCGUGUCCUUCGUCGUCGGGGGCCUCGCUGUAAUUCUGCCCCCAUUGAGCCCCUACUUCAAGUACUCCGUCAUGAUCAACAAGGCCACGCCCUACAACUACCC` is reported as 0.26 ratio.
`GGGGCCGGCGAGGAGGCGCGGACGGCGGGGCGCAGGCUGCUUCCCUGUUGCACCUUUGAUAUCGUUUCCUAGACUCCGUUCCAUGAUUUAAUUUGGAAUUCUGAGAUGAAGAUGGAGGAG` has a bound/input enrichment of 0.244 ratio.
`AAAAGAAGCCAAUUCAACUUUGUUGUGAUUUGAUUUUUUUAAAAACUCUUAUACAAAACUGAUCUAAUUCUUCACUCCUGCUCCAAGGGCUGGGCUGUGGGUGGGGACUGGGGUUUCGGG` gave a bound/input enrichment of 0.308 ratio.
`GUCAACCGUGUUACUAUACUCUGUGACAAAUUUAGUGGCCAUCCCAAAGGGUUUGCAUAUAUAGAGUUCUCGGACAAAGAGUCAGUGAGGACGUCCCUGGCCUUAGAUGAGUCCCUGUUC` has a bound/input enrichment of 0.838 ratio.
With `CCACAAGCAGAGGAAGCGUUAGCGAAGAGGAGAGGAAGGAACAGUCCAAACGGGAACCUCAUUAGGAUGCUUGUUCUUUUCUUUCUGGAAAGUGAGUUACAUGAACAUGCAGCCUACUUG` the bound/input enrichment was 0.23 ratio.
The bound/input enrichment of `UUUUUCUGUUCACAGUAUUUGUGUGUGUGCUUGUUUUGGCAGCUCAUUUUGGCUGUAUUAUAUAUUGAGUGAUGAAUUGAUCCUCUUUUUUCCCUAAGGGAUAUGAAUUGUUUUUCUUGU` is reported as 0.611 ratio.

Excerpt of the above (study 3):
The log fluorescence of `GACGGTTTCGTTCTCCTGACGTGCTAG` is reported as 11 z-score.
`TCATTGATGGCTCTCTGACTGTGCTAG` has a log fluorescence of -0.149 z-score.
`TTAGATCTCAGATTGGATTAGTGCTAG` gave a log fluorescence of -0.008 z-score.
`GACGGTATCGGGTTTCGGGATGTGCTA` gave a log fluorescence of 4.23 z-score.
For `TTTTTTTTCCTAATTGAACCGTGCTAG`, the log fluorescence was 1.57 z-score.
For `GACGGTTTCGCTTTCGGGACGTGCTAG`, the log fluorescence was 12.9 z-score.
With `TCATTTCTCAACCTCCAACTGTGCTAG` the log fluorescence was 1.84 z-score.
